Assay results of several laboratories.
± gives the spread as reported.
SIRT2: NAD-dependent protein deacetylase sirtuin-2 (SIRT2, Homo sapiens, UniProt Q8IXJ6)
Sequence of UniProt Q8IXJ6 (whole entry, looked up): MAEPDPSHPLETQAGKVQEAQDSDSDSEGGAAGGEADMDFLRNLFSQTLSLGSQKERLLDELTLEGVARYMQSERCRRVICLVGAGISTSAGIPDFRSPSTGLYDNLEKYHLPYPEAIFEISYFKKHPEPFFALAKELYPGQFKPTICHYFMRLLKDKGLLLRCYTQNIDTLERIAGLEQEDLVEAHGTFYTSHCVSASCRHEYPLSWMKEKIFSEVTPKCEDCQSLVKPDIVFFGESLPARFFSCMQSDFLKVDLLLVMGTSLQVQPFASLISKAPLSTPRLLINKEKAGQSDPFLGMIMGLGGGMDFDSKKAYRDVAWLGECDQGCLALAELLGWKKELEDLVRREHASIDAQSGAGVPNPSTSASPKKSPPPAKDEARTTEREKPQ
GBA2: Beta-glucosidase (GBA2, Homo sapiens, UniProt Q9HCG7)
Sequence of UniProt Q9HCG7 (whole entry, looked up): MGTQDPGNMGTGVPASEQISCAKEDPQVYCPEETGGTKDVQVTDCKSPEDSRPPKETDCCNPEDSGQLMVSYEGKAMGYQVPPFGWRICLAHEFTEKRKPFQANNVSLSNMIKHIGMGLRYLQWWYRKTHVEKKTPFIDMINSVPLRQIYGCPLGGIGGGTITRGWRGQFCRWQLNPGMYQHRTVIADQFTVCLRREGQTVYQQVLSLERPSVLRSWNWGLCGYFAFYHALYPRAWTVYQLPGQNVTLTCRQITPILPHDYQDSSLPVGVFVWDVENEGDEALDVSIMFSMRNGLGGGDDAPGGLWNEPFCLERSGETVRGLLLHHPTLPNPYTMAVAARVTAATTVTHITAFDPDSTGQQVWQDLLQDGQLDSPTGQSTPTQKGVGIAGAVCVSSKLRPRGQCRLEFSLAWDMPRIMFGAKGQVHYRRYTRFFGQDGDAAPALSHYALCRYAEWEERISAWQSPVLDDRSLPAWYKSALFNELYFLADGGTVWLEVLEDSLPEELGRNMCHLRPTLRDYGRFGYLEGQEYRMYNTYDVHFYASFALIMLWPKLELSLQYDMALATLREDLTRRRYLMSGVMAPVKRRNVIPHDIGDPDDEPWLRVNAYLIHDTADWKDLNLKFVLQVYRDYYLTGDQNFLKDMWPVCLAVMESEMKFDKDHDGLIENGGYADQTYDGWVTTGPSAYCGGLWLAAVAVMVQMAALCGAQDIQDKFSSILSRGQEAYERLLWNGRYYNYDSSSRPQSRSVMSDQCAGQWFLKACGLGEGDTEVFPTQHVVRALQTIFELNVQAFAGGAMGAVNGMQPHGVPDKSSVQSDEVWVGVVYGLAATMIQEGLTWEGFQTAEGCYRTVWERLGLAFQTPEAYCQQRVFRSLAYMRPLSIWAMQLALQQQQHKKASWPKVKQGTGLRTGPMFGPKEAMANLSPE
Chymotrypsinogen A: Chymotrypsinogen A (Bos taurus, UniProt P00766)
PPARA ligand-binding domain: Peroxisome proliferator-activated receptor alpha, ligand-binding domain (PPARA, Homo sapiens, UniProt Q07869)
Sequence of UniProt Q07869 (whole entry, looked up): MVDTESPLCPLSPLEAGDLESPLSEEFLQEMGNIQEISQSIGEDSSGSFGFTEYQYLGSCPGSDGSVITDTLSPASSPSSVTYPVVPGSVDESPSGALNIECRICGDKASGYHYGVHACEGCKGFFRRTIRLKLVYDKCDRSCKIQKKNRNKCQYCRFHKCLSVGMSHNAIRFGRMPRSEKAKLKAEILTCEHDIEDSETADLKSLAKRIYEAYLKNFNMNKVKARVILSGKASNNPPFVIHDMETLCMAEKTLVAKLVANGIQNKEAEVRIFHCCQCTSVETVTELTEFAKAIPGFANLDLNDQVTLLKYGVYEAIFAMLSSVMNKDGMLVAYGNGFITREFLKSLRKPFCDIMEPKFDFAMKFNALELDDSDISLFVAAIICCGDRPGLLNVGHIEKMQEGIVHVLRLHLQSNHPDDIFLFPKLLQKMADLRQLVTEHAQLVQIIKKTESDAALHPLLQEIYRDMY
CHEK1: Serine/threonine-protein kinase Chk1 (CHEK1, Homo sapiens, UniProt O14757)
Sequence of UniProt O14757 (whole entry, looked up): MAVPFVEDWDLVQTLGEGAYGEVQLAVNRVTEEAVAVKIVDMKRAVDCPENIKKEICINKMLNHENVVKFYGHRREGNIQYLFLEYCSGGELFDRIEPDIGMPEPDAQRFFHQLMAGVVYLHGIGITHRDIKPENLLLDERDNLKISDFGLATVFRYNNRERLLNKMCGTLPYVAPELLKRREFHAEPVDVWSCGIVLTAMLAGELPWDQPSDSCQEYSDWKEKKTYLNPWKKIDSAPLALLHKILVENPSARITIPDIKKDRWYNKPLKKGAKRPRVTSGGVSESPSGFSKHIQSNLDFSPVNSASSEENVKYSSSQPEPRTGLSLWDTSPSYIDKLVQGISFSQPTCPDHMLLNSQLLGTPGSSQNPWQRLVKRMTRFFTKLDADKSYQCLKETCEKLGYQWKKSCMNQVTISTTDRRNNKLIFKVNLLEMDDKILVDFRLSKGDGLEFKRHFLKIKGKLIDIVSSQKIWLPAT
PIK3CG: Phosphatidylinositol 4,5-bisphosphate 3-kinase catalytic subunit gamma isoform (PIK3CG, Homo sapiens, UniProt P48736)
Sequence of UniProt P48736 (whole entry, looked up): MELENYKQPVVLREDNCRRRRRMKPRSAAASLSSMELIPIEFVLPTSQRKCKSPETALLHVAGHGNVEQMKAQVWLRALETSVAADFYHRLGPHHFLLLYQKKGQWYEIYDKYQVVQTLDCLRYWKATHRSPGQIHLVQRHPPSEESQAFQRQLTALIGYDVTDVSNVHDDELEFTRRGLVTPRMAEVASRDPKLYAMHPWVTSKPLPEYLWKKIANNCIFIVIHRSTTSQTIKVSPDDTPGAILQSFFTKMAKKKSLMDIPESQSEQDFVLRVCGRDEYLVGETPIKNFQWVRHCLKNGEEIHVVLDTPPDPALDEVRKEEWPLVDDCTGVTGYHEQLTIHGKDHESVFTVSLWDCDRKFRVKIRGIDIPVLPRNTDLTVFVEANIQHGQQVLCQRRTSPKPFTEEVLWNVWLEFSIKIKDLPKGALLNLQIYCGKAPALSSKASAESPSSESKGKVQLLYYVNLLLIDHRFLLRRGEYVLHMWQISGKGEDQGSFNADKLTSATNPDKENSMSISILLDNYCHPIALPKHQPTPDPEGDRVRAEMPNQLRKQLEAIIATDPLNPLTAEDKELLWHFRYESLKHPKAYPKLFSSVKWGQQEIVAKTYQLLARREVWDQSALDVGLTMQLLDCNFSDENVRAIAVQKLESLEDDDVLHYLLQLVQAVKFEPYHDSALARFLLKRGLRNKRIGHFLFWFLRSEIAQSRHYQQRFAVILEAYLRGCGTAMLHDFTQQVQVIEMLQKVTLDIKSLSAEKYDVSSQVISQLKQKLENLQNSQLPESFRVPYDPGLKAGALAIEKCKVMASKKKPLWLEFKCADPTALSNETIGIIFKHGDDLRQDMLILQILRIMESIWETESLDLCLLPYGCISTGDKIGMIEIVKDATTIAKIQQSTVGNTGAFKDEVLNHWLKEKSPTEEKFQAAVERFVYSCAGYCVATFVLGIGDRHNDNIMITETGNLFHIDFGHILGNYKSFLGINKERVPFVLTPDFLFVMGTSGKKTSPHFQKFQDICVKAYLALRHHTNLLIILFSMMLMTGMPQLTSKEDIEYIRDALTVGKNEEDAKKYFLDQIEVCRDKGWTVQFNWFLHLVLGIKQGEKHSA
Sensor histidine kinase AirS: Sensor histidine kinase AirS (Staphylococcus aureus, UniProt Q2FX96)
Sequence of UniProt P41743 (whole entry, looked up): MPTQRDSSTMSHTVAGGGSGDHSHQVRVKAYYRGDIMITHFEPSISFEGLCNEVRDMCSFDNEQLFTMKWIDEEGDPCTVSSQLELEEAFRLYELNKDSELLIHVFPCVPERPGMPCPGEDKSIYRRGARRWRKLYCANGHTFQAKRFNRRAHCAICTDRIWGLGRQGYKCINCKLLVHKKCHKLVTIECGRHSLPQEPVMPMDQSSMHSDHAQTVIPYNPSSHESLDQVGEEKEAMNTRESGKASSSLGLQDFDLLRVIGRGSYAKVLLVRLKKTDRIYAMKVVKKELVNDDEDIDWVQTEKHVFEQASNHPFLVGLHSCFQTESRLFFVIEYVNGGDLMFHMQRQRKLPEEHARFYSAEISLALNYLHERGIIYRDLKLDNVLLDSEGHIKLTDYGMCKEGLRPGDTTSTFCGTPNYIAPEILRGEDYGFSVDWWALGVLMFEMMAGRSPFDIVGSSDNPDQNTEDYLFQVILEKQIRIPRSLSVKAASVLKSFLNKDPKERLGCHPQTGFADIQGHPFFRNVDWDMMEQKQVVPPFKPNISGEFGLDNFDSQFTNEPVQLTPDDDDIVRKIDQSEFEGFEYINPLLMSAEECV
Sequence of UniProt P09917 (whole entry, looked up): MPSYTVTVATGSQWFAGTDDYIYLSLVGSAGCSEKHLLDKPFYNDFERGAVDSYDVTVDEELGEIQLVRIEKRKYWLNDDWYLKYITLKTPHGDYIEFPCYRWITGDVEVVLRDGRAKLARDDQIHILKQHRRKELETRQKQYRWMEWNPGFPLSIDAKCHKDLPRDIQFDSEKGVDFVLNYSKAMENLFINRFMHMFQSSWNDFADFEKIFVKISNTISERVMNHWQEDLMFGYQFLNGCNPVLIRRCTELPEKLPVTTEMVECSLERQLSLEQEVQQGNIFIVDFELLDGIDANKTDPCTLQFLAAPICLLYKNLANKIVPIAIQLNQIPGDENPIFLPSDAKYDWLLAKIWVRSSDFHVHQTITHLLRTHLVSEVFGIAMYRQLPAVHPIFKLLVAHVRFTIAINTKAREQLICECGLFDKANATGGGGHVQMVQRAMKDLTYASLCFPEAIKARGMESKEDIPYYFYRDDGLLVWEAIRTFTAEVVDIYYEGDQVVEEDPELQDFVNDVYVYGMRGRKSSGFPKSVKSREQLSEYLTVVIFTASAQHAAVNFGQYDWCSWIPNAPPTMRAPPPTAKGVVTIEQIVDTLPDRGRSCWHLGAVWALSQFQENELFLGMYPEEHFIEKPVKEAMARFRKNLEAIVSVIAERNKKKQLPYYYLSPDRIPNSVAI
Sequence of UniProt Q9NSU2 (whole entry, looked up): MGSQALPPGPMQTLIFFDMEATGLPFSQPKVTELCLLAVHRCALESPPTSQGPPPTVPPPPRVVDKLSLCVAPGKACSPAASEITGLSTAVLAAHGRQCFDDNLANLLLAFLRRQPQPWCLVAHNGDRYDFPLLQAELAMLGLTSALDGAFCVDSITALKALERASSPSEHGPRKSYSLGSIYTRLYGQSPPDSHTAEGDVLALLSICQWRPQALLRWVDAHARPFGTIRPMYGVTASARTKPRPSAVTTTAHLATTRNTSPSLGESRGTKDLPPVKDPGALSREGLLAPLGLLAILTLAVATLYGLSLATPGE

CNC(=S)NCCCC[C@H](NS(=O)(=O)c1ccc(C(=O)NCc2cn(CCCNc3ccc([N+](=O)[O-])c4nonc34)nn2)cc1)C(=O)N[C@@H](CCCNC(=N)N)C(=O)N[C@@H](CC1CCCCC1)C(N)=O
IC50 (SIRT2; enzyme activity, inhibitor, fluorescence): 0.13 µM

Cc1cc(C)c(S(=O)(=O)N(CC(=O)O)c2ccc(Nc3ccnc(N4CCCC4)n3)cc2)c(C)c1
IC50 (RAC-gamma serine/threonine-protein kinase (AKT3, Homo sapiens, UniProt Q9Y243); enzyme activity, inhibitor): > 100 µM

O=C(NCc1ccc(OP(=O)(O)O)c(OP(=O)(O)O)c1)OCC1c2ccccc2-c2ccccc21
IC50 (Signal transducer and activator of transcription 5A, SH2 (Homo sapiens, UniProt P42229); ligand displacement, FP): 22.3 µM

OC[C@@H]1[C@@H](O)[C@H](O)[C@@H](O)CN1CCCCCOCc1ccc(-c2ccc3c(c2)OCCO3)cc1
IC50 (GBA2; inhibitor, 4MU-β-D-glucopyranoside; HEK293T homogenates overexpressing GBA2): 0.03 µM

COCCNC(=O)c1ccccc1NC(=O)C(C(F)(F)F)C(F)(F)F
IC50 (Chymotrypsinogen A; enzyme activity, inhibitor, fluorescence): 18 µM

Cc1c(Cc2ccc(OC(C)(C)C(=O)O)cc2)c2ccc(C(=O)N[C@@H](C)c3ccc(C4CC4)cc3)cc2n1C
IC50 (PPARA ligand-binding domain; reporter gene, luciferase reporter; HEK293T, Gal4-PPARα LBD): 3.01 µM

OC[C@H]1[C@@H](O)[C@H](O)[C@@H](O)CN1CCCCCOCCC12CC3CC(CC(C3)C1)C2
IC50 (GBA2; inhibitor, 4MU-β-D-glucopyranoside; HEK293T homogenates overexpressing GBA2): 0.006 µM

O=C(Nc1cccnc1)c1ccccc1NC(=O)C(C(F)(F)F)C(F)(F)F
IC50 (Chymotrypsinogen A; enzyme activity, inhibitor, fluorescence): 6.2 µM

CCC[C@H](CC)Oc1ccc(C(C)(C)C)cc1NC(=O)c1nnn(-c2cc(C)c(OC)cc2OC)c1C
IC50 (Nuclear receptor subfamily 1 group I member 2 (NR1I2, Homo sapiens, UniProt O75469); reporter gene, agonist; HepG2 transfected PXR and CYP3A4-luc; 24 h, DMSO 0%): 0.0044 ± 0.001 µM

COc1cc2c(cc1OC)-c1n[nH]c(-c3ccc(OCc4ccccc4)cc3)c1C2
IC50 (CHEK1; enzyme activity, inhibitor): > 10 µM

Cc1nc(Nc2ccc3c(c2)/C(=C/c2ccccc2)C(=O)N3)c2ccccc2n1
IC50 (PIK3CG; enzyme activity, inhibitor, ADP detection): 0.52 µM

C[C@@H](OCCCCCN1C[C@H](O)[C@@H](O)[C@H](O)[C@H]1CO)c1ccc(-c2ccccc2)cc1
IC50 (GBA2; inhibitor, 4MU-β-D-glucopyranoside; HEK293T homogenates overexpressing GBA2): 0.003 µM

Cc1c(Cc2cccc(OC(C)(C)C(=O)O)c2)c2ccc(C(=O)N[C@@H](C)c3cccc(C#N)c3)cc2n1C
IC50 (PPARA ligand-binding domain; reporter gene, luciferase reporter; HEK293T, Gal4-PPARα LBD): 85.9 µM

CN(C)c1ccc(/N=N/c2ccc(OCCCCCN)cc2)cc1
IC50 (Islet amyloid polypeptide (IAPP, Homo sapiens, UniProt P10997); ThT displacement, ThT fluorescence; pH 7.4, preformed target-ThT complex, together with: 5 µM ThT): 0.24 µM

Cc1c(Cc2cccc(OC(C)C(=O)O)c2)c2ccc(C(=O)N[C@@H](C)c3cccc(C(C)C)c3)cc2n1C (stereo partly drawn)
IC50 (PPARA ligand-binding domain; reporter gene, luciferase reporter; HEK293T, Gal4-PPARα LBD): 3.6 µM

CC1Cc2ccccc2N1C1=C(c2ccncc2)C(=O)NC1=O (stereo not drawn)
IC50 (Sensor histidine kinase AirS; autophosphorylation, inhibitor, BODIPY-FL-ATPγS in-gel fluorescence; lower bound of confidence interval): > 1250 µM

CCC1(CC)CC(=O)N(C2CCOc3ccc(C(=O)NC4CC(C)(C)Oc5ccccc54)cc32)C(=N)N1 (stereo not drawn)
IC50 (Cytochrome P450 2C8 (CYP2C8, Homo sapiens, UniProt P10632); enzyme activity, inhibitor): > 20 µM

Nc1ncc2c(n1)-c1c([nH]c3ccc(C4=CCOCC4)cc13)CCC2
IC50 (Mitogen-activated protein kinase kinase kinase 19 (MAP3K19, Homo sapiens, UniProt Q56UN5); enzyme activity, inhibitor, radiometric): 0.6 µM

CCCCCCCCCCCCCC(=S)NCCCC[C@H](NS(C)(=O)=O)C(=O)N[C@H](C)C(=O)N[C@@H](CCCNC(=N)N)C(N)=O
IC50 (SIRT2; enzyme activity, inhibitor, HPLC): 0.022 µM

Nc1ncnc2c1c(-c1ccc(Oc3ccccc3)cc1)cn2C1CCCC1
IC50 (Receptor tyrosine-protein kinase erbB-3 (ERBB3, Homo sapiens, UniProt P21860); cell-free assay, TR-FRET): 0.085 µM

CCn1nc(Cl)c2c1-c1cnc(N)c(c1)O[C@H](C)c1cc(F)ccc1-c1nn(C)cc1C2
IC50 (Focal adhesion kinase 1 (PTK2, Homo sapiens, UniProt Q05397); enzyme activity, inhibitor, radiometric): 0.021 µM

OC[C@@H]1[C@@H](O)[C@H](O)[C@@H](O)c2nccn21
IC50 (GBA2; HEK293 lysate overexpressing enzyme; pH 5.8, together with: 4-MU-β-D-glucopyranoside): > 50 µM

COc1cccc([C@H](C)NC(=O)c2ccc3c(Cc4cccc(OC(C)(C)C(=O)O)c4)c(C)n(C)c3c2)c1
IC50 (PPARA ligand-binding domain; reporter gene, luciferase reporter; HEK293T, Gal4-PPARα LBD): 263 µM

Cc1ccc(CN2C3(NC(c4ccc(C)cc4)C24C(=O)Nc2ccccc24)C(=O)Nc2ccccc23)cc1 (stereo not drawn)
IC50 (PIK3CG; enzyme activity, inhibitor, ADP detection): 0.0509 µM

O=C(Nc1ccccc1OCC(=O)N1CCOCC1)C(C(F)(F)F)C(F)(F)F
IC50 (Chymotrypsinogen A; enzyme activity, inhibitor, fluorescence): 63 µM

Cc1c(Cc2cccc(OC(C)(C)C(=O)O)c2)c2ccc(C(=O)N[C@@H](C)c3cccc(OC(F)(F)F)c3)cc2n1C
IC50 (PPARA ligand-binding domain; reporter gene, luciferase reporter; HEK293T, Gal4-PPARα LBD): 36.7 µM

Cc1cc(NC2CCN(C)CC2)ccc1-c1cc2c(N3CCC[C@H](C(=O)NCc4ccc(OC(F)(F)F)cc4)C3)ncnc2[nH]1
IC50 (Proto-oncogene tyrosine-protein kinase receptor Ret (RET, Homo sapiens, UniProt P07949); enzyme activity, inhibitor, mobility shift): 0.531 µM

Cc1nn(-c2cccc(N)c2)c(=O)c2cnc(Nc3ccc(N4CCNCC4)cc3)nc12
IC50 (Protein kinase C iota type (PRKCI, Homo sapiens, UniProt P41743); enzyme activity, inhibitor): > 10 µM

NC1(Cc2ccc(Cl)cc2)CCN(c2ncnc3[nH]ccc23)CC1
IC50 (Transient receptor potential cation channel subfamily M member 7 (Trpm7, Mus musculus, UniProt Q923J1, F924W); calcium signal): ~530 µM

CC(=O)NCCNC(=O)c1ccccc1NC(=O)C(C(F)(F)F)C(F)(F)F
IC50 (Chymotrypsinogen A; enzyme activity, inhibitor, fluorescence): 132 µM

Cc1c(COc2cc(OCc3cccc(C#N)c3)c(CNC(CO)CO)cc2Cl)cccc1-c1cccc(OCCCCCCC(=O)NO)c1
IC50 (Histone deacetylase 2 (HDAC2, Homo sapiens, UniProt Q92769); enzyme activity, inhibitor): 0.0701 µM

O=C(Nc1ccc(C(=O)Nc2ccc3c(O)cc(S(=O)(=O)O)cc3c2)cc1)c1ccccc1
IC50 (Three-prime repair exonuclease 1 (TREX1, Homo sapiens, UniProt Q9NSU2); enzyme activity, inhibitor): 4.72 µM

CC1C(=O)N(C(=O)c2ccccc2)C1c1ccccc1 (racemic)
IC50 (Chymotrypsinogen A; enzyme activity, inhibitor, fluorescence): 3.8 µM

OC[C@@H]1[C@@H](O)[C@H](O)[C@@H](O)CN1CCCC(F)(F)COCc1ccc(-c2ccccc2)cc1
IC50 (GBA2; inhibitor, 4MU-β-D-glucopyranoside; HEK293T homogenates overexpressing GBA2): 0.001 µM

COc1ccc(NC(=O)C(C(F)(F)F)C(F)(F)F)cc1
IC50 (Chymotrypsinogen A; enzyme activity, inhibitor, fluorescence): 4.7 µM

CCCCCCOCCCCCN1C[C@H](O)[C@@H](O)[C@H](O)[C@H]1CO
IC50 (GBA2; inhibitor, 4MU-β-D-glucopyranoside; HEK293T homogenates overexpressing GBA2): 0.008 µM

CCOc1ccccc1CNC(=O)C(C(F)(F)F)C(F)(F)F
IC50 (Chymotrypsinogen A; enzyme activity, inhibitor, fluorescence): 55 µM

COc1ccc(-c2ccc(COCCCCCN3C[C@H](O)[C@@H](O)[C@H](O)[C@H]3CO)cc2)cc1
IC50 (GBA2; inhibitor, 4MU-β-D-glucopyranoside; HEK293T homogenates overexpressing GBA2): 0.01 µM

Cc1cnc(Nc2ccc3c(c2)CCN(C(=O)/C=C/C(=O)C2CCCC2)C3)nc1-c1cnn(C(C)C)c1
IC50 (Tyrosine-protein kinase JAK2 (JAK2, Homo sapiens, UniProt O60674); enzyme activity, inhibitor, ADP detection): 0.00671 µM

Cc1c(Cc2cccc(OC(C)(C)C(=O)O)c2)c2ccc(C(=O)N[C@@H](C)c3cccc(Cl)c3)cc2n1C
IC50 (PPARA ligand-binding domain; reporter gene, luciferase reporter; HEK293T, Gal4-PPARα LBD): 11.7 µM

CCCCCCCCOCCCCCN1C[C@H](O)[C@@H](O)[C@H](O)[C@@H]1CO
IC50 (GBA2; inhibitor, 4MU-β-D-glucopyranoside; HEK293T homogenates overexpressing GBA2): 0.015 µM

O=C1C[C@H](c2ccc(O)cc2)Oc2cc(O)ccc21
IC50 (Polyunsaturated fatty acid 5-lipoxygenase (ALOX5, Homo sapiens, UniProt P09917); enzyme activity, inhibitor): > 10 µM

COCCNC(=O)COc1ccccc1NC(=O)C(C(F)(F)F)C(F)(F)F
IC50 (Chymotrypsinogen A; enzyme activity, inhibitor, fluorescence): 110 µM

O=C(CCCCCN1C[C@H](O)[C@@H](O)[C@H](O)[C@@H]1CO)NC12CC3CC(CC(C3)C1)C2
IC50 (GBA2; inhibitor, 4MU-β-D-glucopyranoside; HEK293T homogenates overexpressing GBA2): 0.015 µM

O=C(c1ccc(Br)c([N+](=O)[O-])c1)N1CCN(c2ccccc2F)CC1
IC50 (SEC14 (Saccharomyces cerevisiae, UniProt P24280); enzyme activity, inhibitor, radiometric): 0.0997 µM

O=C1NC(=O)C(n2cnc3ccccc32)=C1c1ccccc1
IC50 (Sensor histidine kinase AirS; autophosphorylation, inhibitor, BODIPY-FL-ATPγS in-gel fluorescence; lower bound of confidence interval): > 781 µM

Cc1c(Cc2cccc(OC(C)(C)C(=O)O)c2)c2ccc(C(=O)N[C@H](C)c3ccc(C(C)(C)C)cc3)cc2n1C
IC50 (PPARA ligand-binding domain; reporter gene, luciferase reporter; HEK293T, Gal4-PPARα LBD): 13.9 µM

N#Cc1cnc(NC(=O)Nc2cc(Cl)ccc2N)cn1
IC50 (CHEK1; enzyme activity, inhibitor): 0.535 µM

Repeated from above:
COc1ccc(-c2ccc(COCCCCCN3C[C@H](O)[C@@H](O)[C@H](O)[C@H]3CO)cc2)cc1
IC50 (GBA2; inhibitor, 4MU-β-D-glucopyranoside; HEK293T homogenates overexpressing GBA2): 0.01 µM

Cc1c(COc2cc(OCc3cccc(C#N)c3)c(CNC(CO)CO)cc2Cl)cccc1-c1cccc(OCCCCCCC(=O)NO)c1
IC50 (Histone deacetylase 2 (HDAC2, Homo sapiens, UniProt Q92769); enzyme activity, inhibitor): 0.0701 µM

Cc1cc(C)c(S(=O)(=O)N(CC(=O)O)c2ccc(Nc3ccnc(N4CCCC4)n3)cc2)c(C)c1
IC50 (RAC-gamma serine/threonine-protein kinase (AKT3, Homo sapiens, UniProt Q9Y243); enzyme activity, inhibitor): > 100 µM

Cc1nn(-c2cccc(N)c2)c(=O)c2cnc(Nc3ccc(N4CCNCC4)cc3)nc12
IC50 (Protein kinase C iota type (PRKCI, Homo sapiens, UniProt P41743); enzyme activity, inhibitor): > 10 µM

Nc1ncnc2c1c(-c1ccc(Oc3ccccc3)cc1)cn2C1CCCC1
IC50 (Receptor tyrosine-protein kinase erbB-3 (ERBB3, Homo sapiens, UniProt P21860); cell-free assay, TR-FRET): 0.085 µM

Cc1cc(NC2CCN(C)CC2)ccc1-c1cc2c(N3CCC[C@H](C(=O)NCc4ccc(OC(F)(F)F)cc4)C3)ncnc2[nH]1
IC50 (Proto-oncogene tyrosine-protein kinase receptor Ret (RET, Homo sapiens, UniProt P07949); enzyme activity, inhibitor, mobility shift): 0.531 µM

Cc1c(Cc2cccc(OC(C)C(=O)O)c2)c2ccc(C(=O)N[C@@H](C)c3cccc(C(C)C)c3)cc2n1C (stereo partly drawn)
IC50 (PPARA ligand-binding domain; reporter gene, luciferase reporter; HEK293T, Gal4-PPARα LBD): 3.6 µM
